Published values gathered from unrelated publications.
Every numbered part comes from another study and shows a few of its results, in no order. Values joined by “and” are separate records of one study, mostly repeats; a detail may differ.

Sample 1 — cell line: mouse MPNST tumor cells; technique: high-content immunofluorescence imaging; refers to: nuclear SOX9; concentration: 10 µM; time: 12 h; notes: mean of 2 replicates; reference: DMSO control; reading: higher = more nuclear SOX9; measurement: nuclear SOX9 intensity
Cc1cccc(-c2[nH]ncc2-c2ccnc3ccccc23)n1: 99.3 % of DMSO
O=C(NC1Cc2ccccc2N(C[C@@H](O)CO)C1=O)c1cc2cc(Cl)sc2[nH]1 (stereo partly shown): 85.7 % of DMSO
CCN(CC)C(=O)/C(C#N)=C/c1cc(O)c(O)c([N+](=O)[O-])c1: 106 % of DMSO and 95.6 % of DMSO
CN1C(=O)N(c2cc(Cl)cc(Cl)c2)C(=O)[C@@]1(C)Cc1ccc(Br)cc1: 114 % of DMSO

Sample 2 — organism: Sarcocystis neurona; effect on: parasite growth; concentration: 10 µM; time: 96 h; measurement: inhibition
O=[N+]([O-])c1cccc2cn[nH]c12: -5%
CCN(CC)CCOC(=O)c1ccc(N)cc1: -13.9%
Cc1ncc([N+](=O)[O-])n1CCO: -8.9%
COc1cc2nc(N(C)CCCNC(=O)C3CCCO3)nc(N)c2cc1OC (stereo not shown): -11.5%

Other studies, line by line
CN(C(=O)c1ccn2ncc(-c3ccc(C(N)=O)cc3)c2c1)c1ccc(C#N)cn1 — half-life of parasite killing (Cryptosporidium parvum; time-kill, one-phase decay fit; nanoluciferase-expressing; 20 µM): 19.4 h
CC(C)n1cnc(-c2ccc(F)cc2)c1-c1ncc(C(=O)Nc2ccc(N3CCN(C)CC3)cc2)[nH]1 — patients with urinary tract infection (human, idiopathic pulmonary fibrosis; 30 mg once daily, trial, treatment-emergent): 0%

Some of these lines once more (sample 2):
COc1cc2nc(N(C)CCCNC(=O)C3CCCO3)nc(N)c2cc1OC (stereo not shown): -11.5%
